# Published values collected from several papers.
# Numbered parts are unrelated; each lists some results of a single study.

# Study 1 — method: protein binding microarray; form: double-stranded DNA, one strand shown; medium: in vitro; concentration: not given; relative to: not given; reading: higher = stronger binding
# Target: Histone acetyltransferase KAT6A, winged helix 1, GST fusion (KAT6A, Homo sapiens, UniProt Q92794, residues 1-85)
# Notes: 8-mer, flanks averaged, mean of 2 arrays, mostly near background
# Construct (chain): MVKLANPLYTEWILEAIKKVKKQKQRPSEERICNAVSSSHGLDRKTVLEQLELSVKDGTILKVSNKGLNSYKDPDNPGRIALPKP
Sequence,E-score
AGCGGATC,0.158
CCCTACAG,-0.105
CGATGTAA,0.109
CGGGCCGA,0.237
ACTGAGAA,0.0055

# Study 2 — method: protein-binding microarray; form: double-stranded DNA, one strand shown; medium: in vitro; concentration: 2540 nM top; notes: 60-bp whole probe; together with: salmon DNA 0.4 mg/ml; relative to: random background probes; reading: higher = stronger binding
# Target: Interferon regulatory factor 3, full length, phosphomimetic (IRF3, Homo sapiens, UniProt Q14653, residues 1-427, S386D/S396D/S398D/S402D/T404D/S405D)
# Target sequence (chain): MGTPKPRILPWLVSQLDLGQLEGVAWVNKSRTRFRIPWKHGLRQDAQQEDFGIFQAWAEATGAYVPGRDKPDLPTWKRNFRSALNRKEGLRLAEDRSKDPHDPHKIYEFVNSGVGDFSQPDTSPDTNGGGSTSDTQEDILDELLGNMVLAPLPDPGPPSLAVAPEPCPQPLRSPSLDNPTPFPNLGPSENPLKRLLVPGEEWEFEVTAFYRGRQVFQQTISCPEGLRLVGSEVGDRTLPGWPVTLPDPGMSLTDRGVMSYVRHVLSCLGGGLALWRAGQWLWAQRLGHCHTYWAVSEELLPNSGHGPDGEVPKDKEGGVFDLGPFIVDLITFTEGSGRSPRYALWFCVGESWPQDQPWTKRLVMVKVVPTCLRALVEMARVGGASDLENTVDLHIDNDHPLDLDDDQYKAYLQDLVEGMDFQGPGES
Sequence,fitted relative affinity [z-score]
GCCTAGCACGACGGTTTCCTTCTCCTGAGGTGCTAGGTCTTGATTCGCTTGACGCTGCTG,9.18
GCCTAGCACTTTTTTTTTTGTATTTTTGAGTGCTAGGTCTTGATTCGCTTGACGCTGCTG,1.9
GCCTAGCACAATTTTTTTTCTAACTAAAAGTGCTAGGTCTTGATTCGCTTGACGCTGCTG,1.4

# Further values, each from its own experiment
# PHO4 full length, GST-tagged: Phosphate system positive regulatory protein PHO4, full length, GST-tagged (PHO4, Saccharomyces cerevisiae, UniProt P07270, residues 1-312)
# Sequence of UniProt P07270 (whole entry, looked up): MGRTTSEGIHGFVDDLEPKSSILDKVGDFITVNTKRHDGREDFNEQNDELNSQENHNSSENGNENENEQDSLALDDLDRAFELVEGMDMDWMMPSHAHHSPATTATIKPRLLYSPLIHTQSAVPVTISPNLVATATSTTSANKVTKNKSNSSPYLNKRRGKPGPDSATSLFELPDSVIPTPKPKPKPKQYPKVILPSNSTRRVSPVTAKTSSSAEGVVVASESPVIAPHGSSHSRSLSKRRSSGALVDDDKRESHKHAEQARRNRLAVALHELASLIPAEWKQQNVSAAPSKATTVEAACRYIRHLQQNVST
# CBF1 full length, His-tagged: Centromere-binding protein 1, full length, His-tagged (CBF1, Saccharomyces cerevisiae, UniProt P17106, residues 1-351)
# Sequence of UniProt P17106 (whole entry, looked up): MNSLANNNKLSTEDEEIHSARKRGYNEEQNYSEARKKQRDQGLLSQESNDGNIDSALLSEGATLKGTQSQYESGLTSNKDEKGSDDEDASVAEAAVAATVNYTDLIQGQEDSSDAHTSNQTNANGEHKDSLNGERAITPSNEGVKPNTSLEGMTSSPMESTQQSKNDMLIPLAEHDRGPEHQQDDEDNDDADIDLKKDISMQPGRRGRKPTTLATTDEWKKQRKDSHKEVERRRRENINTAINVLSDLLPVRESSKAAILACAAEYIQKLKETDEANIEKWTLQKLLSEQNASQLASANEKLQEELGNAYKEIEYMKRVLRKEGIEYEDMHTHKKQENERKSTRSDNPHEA
Molecule,target,test,test system,setting,how to read,endpoint,value
TCGCAATATGAATATCACAGAAAAATTAGAGCAACAGTCTTGATTCGCTTGACGCTGCTG,"PHO4 full length, GST-tagged",competition protein-binding microarray,"double-stranded DNA, one strand shown, in vitro","2 µM, whole 60-bp probe, lowest competitor level, together with: Cbf1 competitor, 0.05 µM",higher = stronger binding,fluorescence intensity,2690 a.u.
"PhoQ, residues 284 288 289 292 302 303 NLALSC","PhoP, residues 12 14 15 18 19 HHYTI (Escherichia coli, UniProt P23836)","Sort-seq, item: YFP reporter",E. coli,"PhoQ-PhoP variant library, together with: 10 µM Mg2+","relative to: high Mg2+ state, higher = stronger signaling",fold induction,1.18
AAAGCGGTAATTTGTCACTATACTTCACATATCTATGTCTTGATTCGCTTGACGCTGCTG,"CBF1 full length, His-tagged",competition protein-binding microarray,"double-stranded DNA, one strand shown, in vitro","2 µM, whole 60-bp probe, lowest competitor level, together with: Pho4 competitor, 0.05 µM",higher = stronger binding,fluorescence intensity,81.8 a.u.
ATACTTGCATTCGACCACGTGCTTTGGCATGTATCTGTCTTGATTCGCTTGACGCTGCTG,"PHO4 full length, GST-tagged",competition protein-binding microarray,"double-stranded DNA, one strand shown, in vitro","2 µM, whole 60-bp probe, lowest competitor level, together with: Cbf1 competitor, 0.05 µM",higher = stronger binding,fluorescence intensity,16000 a.u.
TTACATGTAGGTAGCTTCGTGCCAGAACGCAAGGGTGTCTTGATTCGCTTGACGCTGCTG,"CBF1 full length, His-tagged",competition protein-binding microarray,"double-stranded DNA, one strand shown, in vitro","2 µM, whole 60-bp probe, lowest competitor level, together with: Pho4 competitor, 0.05 µM",higher = stronger binding,fluorescence intensity,72 a.u.

# A few entries again (study 2):
Sequence,fitted relative affinity [z-score]
GCCTAGCACGACGGTTTCCTTCTCCTGAGGTGCTAGGTCTTGATTCGCTTGACGCTGCTG,9.18
